Assay results from different studies.
Every numbered part comes from another study and shows a few of its results, in no order.
Chain of UniProt P10721 (whole entry, unmodified, looked up): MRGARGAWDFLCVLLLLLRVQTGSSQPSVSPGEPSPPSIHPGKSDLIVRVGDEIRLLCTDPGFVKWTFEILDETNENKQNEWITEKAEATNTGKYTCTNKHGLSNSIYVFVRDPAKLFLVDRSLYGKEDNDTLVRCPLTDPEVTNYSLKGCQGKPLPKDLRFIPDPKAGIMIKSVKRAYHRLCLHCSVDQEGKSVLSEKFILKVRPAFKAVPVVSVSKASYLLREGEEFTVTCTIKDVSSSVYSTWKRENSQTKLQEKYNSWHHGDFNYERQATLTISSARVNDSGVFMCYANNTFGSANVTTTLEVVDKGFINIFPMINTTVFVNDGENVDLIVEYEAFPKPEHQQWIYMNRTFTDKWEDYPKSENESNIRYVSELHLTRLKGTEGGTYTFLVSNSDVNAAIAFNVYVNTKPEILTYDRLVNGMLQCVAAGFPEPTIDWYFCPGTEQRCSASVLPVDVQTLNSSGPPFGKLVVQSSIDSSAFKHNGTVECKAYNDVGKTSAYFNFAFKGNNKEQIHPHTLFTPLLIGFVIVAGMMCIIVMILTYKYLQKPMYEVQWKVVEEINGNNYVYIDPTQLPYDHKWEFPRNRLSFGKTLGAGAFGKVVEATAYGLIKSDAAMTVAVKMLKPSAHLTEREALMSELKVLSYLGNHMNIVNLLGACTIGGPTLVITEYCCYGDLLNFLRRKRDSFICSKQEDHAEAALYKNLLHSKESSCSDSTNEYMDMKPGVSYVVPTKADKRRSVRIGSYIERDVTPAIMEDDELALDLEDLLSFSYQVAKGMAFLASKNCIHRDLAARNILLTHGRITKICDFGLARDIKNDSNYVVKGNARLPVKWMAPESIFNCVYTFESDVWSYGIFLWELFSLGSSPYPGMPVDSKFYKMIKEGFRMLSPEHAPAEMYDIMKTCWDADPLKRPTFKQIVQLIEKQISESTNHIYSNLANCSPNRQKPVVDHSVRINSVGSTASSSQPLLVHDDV
Chain of UniProt Q08345 (whole entry, looked up): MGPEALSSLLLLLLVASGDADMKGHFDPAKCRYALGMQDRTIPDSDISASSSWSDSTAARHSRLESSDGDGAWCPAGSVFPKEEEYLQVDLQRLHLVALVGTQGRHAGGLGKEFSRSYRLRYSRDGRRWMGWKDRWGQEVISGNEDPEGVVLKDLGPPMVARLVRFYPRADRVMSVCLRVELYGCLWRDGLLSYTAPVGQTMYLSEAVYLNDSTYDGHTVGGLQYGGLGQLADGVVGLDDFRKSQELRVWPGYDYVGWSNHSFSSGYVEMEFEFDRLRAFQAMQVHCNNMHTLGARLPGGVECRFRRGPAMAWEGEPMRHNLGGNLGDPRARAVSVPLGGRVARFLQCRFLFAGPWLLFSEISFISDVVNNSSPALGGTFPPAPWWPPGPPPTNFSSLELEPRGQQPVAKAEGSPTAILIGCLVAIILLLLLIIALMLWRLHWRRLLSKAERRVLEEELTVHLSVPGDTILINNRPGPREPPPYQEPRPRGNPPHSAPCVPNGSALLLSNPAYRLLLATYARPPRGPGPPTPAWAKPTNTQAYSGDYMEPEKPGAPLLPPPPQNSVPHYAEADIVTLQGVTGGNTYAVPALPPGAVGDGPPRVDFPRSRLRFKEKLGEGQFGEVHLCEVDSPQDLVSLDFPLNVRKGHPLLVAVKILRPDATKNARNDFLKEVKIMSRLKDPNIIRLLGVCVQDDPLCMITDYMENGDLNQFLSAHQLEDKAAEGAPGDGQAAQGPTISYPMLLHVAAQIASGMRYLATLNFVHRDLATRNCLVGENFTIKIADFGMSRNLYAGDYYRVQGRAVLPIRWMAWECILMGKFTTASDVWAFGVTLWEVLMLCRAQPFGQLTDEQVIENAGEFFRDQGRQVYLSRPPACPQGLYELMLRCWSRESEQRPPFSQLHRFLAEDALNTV
Chain of UniProt Q59H18 (whole entry, looked up): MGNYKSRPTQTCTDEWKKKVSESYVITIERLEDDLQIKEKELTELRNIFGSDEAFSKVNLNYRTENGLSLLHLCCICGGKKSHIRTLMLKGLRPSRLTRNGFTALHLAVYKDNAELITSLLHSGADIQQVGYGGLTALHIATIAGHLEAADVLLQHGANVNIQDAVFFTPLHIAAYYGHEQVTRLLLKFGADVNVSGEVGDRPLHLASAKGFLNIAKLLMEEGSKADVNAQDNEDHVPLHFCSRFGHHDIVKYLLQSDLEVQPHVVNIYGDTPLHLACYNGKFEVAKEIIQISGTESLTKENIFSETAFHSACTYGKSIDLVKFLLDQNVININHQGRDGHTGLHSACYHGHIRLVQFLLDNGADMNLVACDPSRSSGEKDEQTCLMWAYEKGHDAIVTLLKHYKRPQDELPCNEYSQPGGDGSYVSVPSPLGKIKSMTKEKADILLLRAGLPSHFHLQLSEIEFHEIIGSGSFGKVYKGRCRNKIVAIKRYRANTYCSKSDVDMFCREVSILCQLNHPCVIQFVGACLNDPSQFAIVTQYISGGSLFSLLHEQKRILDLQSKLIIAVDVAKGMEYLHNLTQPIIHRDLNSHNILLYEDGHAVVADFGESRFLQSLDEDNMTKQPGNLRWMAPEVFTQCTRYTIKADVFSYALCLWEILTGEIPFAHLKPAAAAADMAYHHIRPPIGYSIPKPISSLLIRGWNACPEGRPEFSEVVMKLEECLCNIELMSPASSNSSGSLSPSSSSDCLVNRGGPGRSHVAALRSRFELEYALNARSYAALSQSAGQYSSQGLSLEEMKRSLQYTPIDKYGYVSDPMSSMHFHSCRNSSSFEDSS
Chain of UniProt Q14164 (whole entry, looked up): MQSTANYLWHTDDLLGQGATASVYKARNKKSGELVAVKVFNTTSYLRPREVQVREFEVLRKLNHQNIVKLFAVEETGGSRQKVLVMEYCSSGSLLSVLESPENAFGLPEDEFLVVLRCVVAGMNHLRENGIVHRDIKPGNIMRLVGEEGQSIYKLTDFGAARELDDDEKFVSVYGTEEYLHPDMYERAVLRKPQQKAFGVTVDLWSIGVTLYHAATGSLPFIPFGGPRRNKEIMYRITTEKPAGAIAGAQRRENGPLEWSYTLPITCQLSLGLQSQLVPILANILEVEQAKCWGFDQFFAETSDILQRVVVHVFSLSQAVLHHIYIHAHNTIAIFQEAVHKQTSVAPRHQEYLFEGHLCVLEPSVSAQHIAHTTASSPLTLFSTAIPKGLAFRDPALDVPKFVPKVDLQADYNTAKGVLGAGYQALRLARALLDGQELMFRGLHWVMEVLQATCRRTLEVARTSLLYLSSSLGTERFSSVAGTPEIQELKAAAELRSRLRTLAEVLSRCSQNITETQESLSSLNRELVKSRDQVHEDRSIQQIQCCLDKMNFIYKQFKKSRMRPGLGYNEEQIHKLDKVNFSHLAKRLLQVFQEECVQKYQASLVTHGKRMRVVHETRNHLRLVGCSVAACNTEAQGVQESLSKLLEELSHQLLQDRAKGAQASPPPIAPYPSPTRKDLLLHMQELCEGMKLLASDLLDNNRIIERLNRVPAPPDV

Series 1 — read-out: cell-free assay; technique: competition with immobilised ligand; tested at: 1 µM
Structure (SMILES): CN(C)CC#Cc1ccc(OCCCc2sc(N3CCc4cccc(C(=O)Nc5nc6ccccc6s5)c4C3)nc2C(=O)O)c(F)c1
target | remaining binding
KIT (Homo sapiens, UniProt P10721, A829P) | 100%
DDR1 (Homo sapiens, UniProt Q08345) | 100%
KIT (Homo sapiens, UniProt P10721, T670I/V559D) | 95%
CAMK2A (Homo sapiens, UniProt Q9UQM7) | 64%
AKT1 (Homo sapiens, UniProt P31749) | 100%
KIT (Homo sapiens, UniProt P10721, L576P) | 95%
CLK4 (Homo sapiens, UniProt Q9HAZ1) | 74%
NLK (Homo sapiens, UniProt Q9UBE8) | 80%
BRSK1 (Homo sapiens, UniProt Q8TDC3) | 100%
SRMS (Homo sapiens, UniProt Q9H3Y6) | 100%
SGK3 (Homo sapiens, UniProt Q96BR1) | 100%
STK4 (Homo sapiens, UniProt Q13043) | 100%
EGFR (Homo sapiens, UniProt P00533, L861Q) | 100%
EPHA5 (Homo sapiens, UniProt P54756) | 98%
PIK3CA (Homo sapiens, UniProt P42336, H1047Y) | 100%
BMX (Homo sapiens, UniProt P51813) | 82%
Tyrosine-protein kinase ABL1, non-phosphorylated (ABL1, Homo sapiens, UniProt P00519) | 100%
TNK1 (Homo sapiens, UniProt Q13470) | 98%
CIT (Homo sapiens, UniProt O14578) | 77%
CDKL1 (Homo sapiens, UniProt Q00532) | 100%
KIT (Homo sapiens, UniProt P10721) | 97%
KIT (Homo sapiens, UniProt P10721, D816V) | 100%
Tyrosine-protein kinase ABL1, non-phosphorylated (ABL1, Homo sapiens, UniProt P00519, H396P) | 100%

Series 2 — read-out: enzyme activity; mode: inhibitor; tested at: 1 µM
Structure (SMILES): CC#CC(=O)N1CCC[C@H]1c1nc(-c2ccc(C(=O)Nc3ccccn3)cc2)c2c(N)nccn12
target | inhibition
IRAK1 (Homo sapiens, UniProt P51617) | 1%
PTK6 (Homo sapiens, UniProt Q13882) | 11%
PKN1 (Homo sapiens, UniProt Q16512) | 3%
TNNI3K (Homo sapiens, UniProt Q59H18) | 55%
MAP3K20 (Homo sapiens, UniProt Q9NYL2) | 24%
MAPK9 (Homo sapiens, UniProt P45984) | 0%
MAPK10 (Homo sapiens, UniProt P53779) | 19%
Receptor-type tyrosine-protein kinase FLT3, autoinhibited (FLT3, Homo sapiens, UniProt P36888) | 5%
PIK3CD (Homo sapiens, UniProt O00329) | 12%
DDR1 (Homo sapiens, UniProt Q08345) | 20%
IKBKE (Homo sapiens, UniProt Q14164) | 10%
Cyclin-dependent kinase 4, with cyclin D1 (CDK4, Homo sapiens, UniProt P11802) | 0%
ITK (Homo sapiens, UniProt Q08881) | 0%
EPHA6 (Homo sapiens, UniProt Q9UF33) | 11%

Series 3 — read-out: enzyme activity; mode: inhibitor; tested at: 0.5 µM; reference: control
Target: Rho-associated protein kinase 2 (ROCK2, Homo sapiens, UniProt O75116)
Chain of UniProt O75116 (whole entry, looked up): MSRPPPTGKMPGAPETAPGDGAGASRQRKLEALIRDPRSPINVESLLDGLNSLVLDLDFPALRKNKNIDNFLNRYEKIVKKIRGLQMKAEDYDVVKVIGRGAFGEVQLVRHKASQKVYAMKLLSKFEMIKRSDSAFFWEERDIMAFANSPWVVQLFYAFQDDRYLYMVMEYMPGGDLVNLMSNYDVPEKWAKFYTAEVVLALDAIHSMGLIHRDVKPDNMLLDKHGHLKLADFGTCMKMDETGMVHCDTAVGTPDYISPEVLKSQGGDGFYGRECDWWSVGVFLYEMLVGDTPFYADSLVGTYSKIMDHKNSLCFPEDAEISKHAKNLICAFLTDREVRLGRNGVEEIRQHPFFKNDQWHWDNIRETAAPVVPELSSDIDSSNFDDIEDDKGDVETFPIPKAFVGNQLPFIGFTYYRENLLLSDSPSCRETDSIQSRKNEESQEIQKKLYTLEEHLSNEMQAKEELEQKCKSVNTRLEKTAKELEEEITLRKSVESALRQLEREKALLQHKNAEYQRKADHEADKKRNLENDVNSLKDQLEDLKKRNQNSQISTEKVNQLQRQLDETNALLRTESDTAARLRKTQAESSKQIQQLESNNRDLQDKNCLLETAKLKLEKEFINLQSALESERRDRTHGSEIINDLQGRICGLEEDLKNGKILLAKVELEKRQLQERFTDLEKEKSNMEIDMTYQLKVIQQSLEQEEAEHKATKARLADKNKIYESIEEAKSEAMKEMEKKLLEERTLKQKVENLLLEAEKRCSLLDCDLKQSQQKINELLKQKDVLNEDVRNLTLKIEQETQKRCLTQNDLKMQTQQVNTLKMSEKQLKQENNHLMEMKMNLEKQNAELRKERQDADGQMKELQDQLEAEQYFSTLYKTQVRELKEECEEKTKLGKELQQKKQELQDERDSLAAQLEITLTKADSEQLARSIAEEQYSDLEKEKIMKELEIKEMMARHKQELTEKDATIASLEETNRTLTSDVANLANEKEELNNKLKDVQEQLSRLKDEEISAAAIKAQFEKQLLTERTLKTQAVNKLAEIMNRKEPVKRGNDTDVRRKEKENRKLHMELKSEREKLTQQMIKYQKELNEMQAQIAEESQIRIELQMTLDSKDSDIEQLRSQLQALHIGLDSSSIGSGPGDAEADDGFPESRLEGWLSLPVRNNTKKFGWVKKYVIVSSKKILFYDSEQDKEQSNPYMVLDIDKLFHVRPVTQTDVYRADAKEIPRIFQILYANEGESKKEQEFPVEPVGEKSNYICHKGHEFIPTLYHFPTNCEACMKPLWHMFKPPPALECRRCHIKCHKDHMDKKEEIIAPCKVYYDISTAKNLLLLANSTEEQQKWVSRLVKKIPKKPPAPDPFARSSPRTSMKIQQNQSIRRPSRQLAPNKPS
SMILES | remaining activity
CCN(CC)C(=O)c1ccc(Nc2nc(OCC3CCCCC3)c3[nH]cnc3n2)cc1 | 39.8%
O=C(NC(NC(=S)Nc1ccc(F)c([N+](=O)[O-])c1)C(Cl)(Cl)Cl)C(c1ccccc1)c1ccccc1 (centres unmarked) | 109%
Nc1cccc(-c2cc3c(Oc4cccc(O)c4)ncnc3[nH]2)c1 | 94.5%
CCN(CC)CCNC(=O)c1c(C)[nH]c(/C=C2\C(=O)Nc3ccc(Cl)cc32)c1C | 73.5%
O=c1cc(-c2cccc3c2Sc2ccccc2S3)oc(N2CCOCC2)c1 | 109%
COc1cc2ncnc(Nc3ccc(O)c(Br)c3)c2cc1OC | 89.9%
Cc1cn(-c2cc(NC(=O)c3ccc(C)c(Nc4nccc(-c5cccnc5)n4)c3)cc(C(F)(F)F)c2)cn1 | 97.1%
COc1cc2c(cc1OC)-c1[nH]nc(Nc3cccc(F)c3)c1C2 | 95.2%
O=C1c2ccccc2-c2n[nH]c3cccc1c23 | 89.4%
CN([C@@H](Cc1ccc(OS(=O)(=O)c2cccc3cnccc23)cc1)C(=O)N1CCN(c2ccccc2)CC1)S(=O)(=O)c1cccc2cnccc12 | 105%
CN(C)C[C@H]1CCn2c(c(C3=C(c4cn(C)c5ccccc45)C(=O)NC3=O)c3ccccc32)C1 | 98.9%
Ic1cccc(CSc2nnc(-c3ccncc3)o2)c1 | 89%
c1ccc(-c2cnc(Nc3ccc(OCCN4CCCC4)cc3)s2)cc1 | 91.7%
COc1cc2ncnc(Nc3cccc(Cl)c3)c2cc1OC | 92.6%
C[C@@H]1CCN(C(=O)CC#N)C[C@@H]1N(C)c1ncnc2[nH]ccc12 | 69.9%
O=C1C(Cl)=C(N2C(=O)CCC2=O)C(=O)c2ccccc21 | 91.5%
O=C(Nc1cccc(Nc2nccc(Nc3cccc(C(F)(F)F)c3)n2)c1)C1CC1 | 105%
N#Cc1c(NC(=O)c2cccc3ccccc23)sc2c1CCCC2 | 98%
Cn1nc2c3c(cccc31)C(=O)c1ccccc1-2 | 92.3%
CCOc1nc(NC(=O)Cc2cc(OC)ccc2OC)cc(N)c1C#N | 93.1%
Cc1nc2cc3nc(-c4cccs4)cnc3cc2n1C | 107%
N#C/C(=C\c1ccc(O)c(O)c1)C(=O)NCc1ccccc1 | 94%
Cc1cc2ncc(-c3ccccc3)nc2cc1C | 88.1%

Series 4 — host: human; medium: microsomes or S9; tested at: 2 µM; time: 0.5 h
SMILES | remaining compound
CCN(CC)S(=O)(=O)c1cc(Br)cnc1N | 37.1%
Clc1ccc(-c2c(-n3cncn3)nc3ccc(Cl)cc3c2Cl)c(Cl)c1 | 50.7%
COc1cc(=O)n2c(c1C(=O)NCc1cccc(C(F)(F)F)c1)CCCC2 | 44%
CN1CCC(C(=O)OC2CC(C)(C)Oc3ccc(Br)cc32)CC1=O (centres unmarked) | 16.2%
Cn1c2ccccc2n2c(=O)n(Cc3cscn3)nc12 | 86.3%
CCN(CC)c1cc(CCC(=O)N(C)CCCc2c(C)nn(C)c2C)ccn1 | 4.99%
Cn1nnnc1NC(=O)c1ccc(C(F)(F)F)nc1N1CCC(C#N)(c2ccccc2)CC1 | 47.6%
NC(=O)C1CCCC1NC(=O)c1cc2ccccn2c1 (centres unmarked) | > 100%
CCCn1nccc1-c1csc(S(=O)(=O)Nc2ccccc2)c1 | 0.0789%
CCN(CC)C(=O)[C@@H]1C[C@@H](NC(=O)Cn2ccc3ccccc32)CN1C | 58.9%
O=c1c2c3nc4ccccc4nc3n(Cc3ccc4c(c3)OCO4)c2ncn1Cc1ccco1 | 42.4%
CCC(CC)C(=O)N1CCN(S(=O)(=O)c2ccccc2)CC1 | 88%
Cn1[nH]c(Br)c2/c(=N\CCN)ncnc1-2 | 49.2%
Cc1cc(C)n(-c2nc(NCc3ccco3)c3c4c(sc3n2)COC(C)(C)C4)n1 | 7.81%
COc1ccc(-c2c(-n3cncn3)c([S+](C)[O-])nn2-c2ccc(F)cc2)cc1 (centres unmarked) | 77.3%
COc1cc(=O)[nH]cc1C(=O)N1CCCCC1c1cc[nH]n1 (centres unmarked) | > 99%
c1ccc(C(CNc2ncccn2)c2ccccc2)cc1 | 2.03%

For quick reference, copied from above (series 3):
SMILES | remaining activity
O=c1cc(-c2cccc3c2Sc2ccccc2S3)oc(N2CCOCC2)c1 | 109%
Cn1nc2c3c(cccc31)C(=O)c1ccccc1-2 | 92.3%
N#Cc1c(NC(=O)c2cccc3ccccc23)sc2c1CCCC2 | 98%
Ic1cccc(CSc2nnc(-c3ccncc3)o2)c1 | 89%
